Results pooled from the literature.
Compare with care: the assays were run in different laboratories. Numbers after ± are the reported error. In brackets after ≈: the same amount, converted by molar mass.

SMILES	assay	system	setting	how to read	quantity	result
CC(C)CCCC(C)CCCC(C)CCOC1OC[C@H](O)[C@H](O)[C@H]1O (stereo partly shown)	drop shape tensiometry	water	room temperature	–	surface tension at CMC	27.3 mN/m
NC1CC=C(c2cc3c(Nc4cc5ncsc5cc4F)ncnc3s2)CC1 (stereo not shown)	–	human liver microsomes	1 µM	–	intrinsic clearance	< 12 mL/min/g protein
Cc1ccc(NCC(=O)Nc2ccc(F)c(Cl)c2)cc1S(=O)(=O)N1CCCCC1	–	water	–	–	kinetic solubility	55 µM (≈ 24.2 µg/mL)
C=C(C)C(=O)Nc1ccc(-c2c(-c3ccc(Oc4nccc(C)n4)cc3)c3c(N)ncnc3n2C)cc1	–	beagle dog, plasma	5 µM, 18 h	–	unbound fraction	0.043
COC(=O)C1OC(Oc2c(-c3ccccc3)oc3cc(O)c(O)c(O)c3c2=O)C(O)C(O)C1O (stereo not shown)	–	BALB/c mouse, thymus	2 mg/kg	–	organ weight	0.26 ± 0.08 g
O=c1nc(NO)ccn1[C@@H]1O[C@H](CO)[C@@H](O)[C@H]1O	RT-PCR, measured: CYP2D1	normal rat, liver	oral, 80 mg/kg twice daily, 5 days	relative to: untreated rats	mRNA level	< 0.1 fold
COc1ccc2cc(-c3ccc(-c4ccc(C)cn4)nc3)oc2c1	–	aqueous HEPES buffer	pH 7.4, zinc-free ligand	–	fluorescence lifetime	2.48 ns
COCCOCCOCCOCCOCCOCCOCCOCCOCCOCCOCCOCCNC(=O)CCC1(CCC(=O)NCCOCCOCCOCCOCCOCCOCCOCCOCCOCCOCCOCCOC)c2ccccc2-c2ccc(-c3sc(-c4c5c(c(-c6sc(-c7ccc8c(c7)C(CCC(=O)NCCOCCOCCOCCOCCOCCOCCOCCOCCOCCOCCOCCOC)(CCC(=O)NCCOCCOCCOCCOCCOCCOCCOCCOCCOCCOCCOCCOC)c7ccccc7-8)c7c6OCCO7)c6nsnc46)N=S=N5)c4c3OCCO4)cc21	–	KM mice, female, faeces	intravenous, dose not given, 24 h	relative to: dose	faecal excretion	~3%
COCC1CN(C2CCN(c3cc(OC)c(Nc4ncc(Br)c(Nc5ccc6c(c5P(C)(C)=O)OCCO6)n4)cc3C)CC2)C1	–	human	oral, dose not given	relative to: patients	grade ≥3 loss of appetite	3.7%
N=C(N)NCCC[C@@H]1NC(=O)[C@H](Cc2c[nH]c3ccccc23)NC(=O)[C@@H](CC2CCCCC2)NC(=O)[C@@H]2CCCN2C(=O)[C@@H](NC(=O)CCc2ccccc2)CCCNC1=O	–	C57BL/6J mice, spinal cord	intraperitoneal, 1 mg/kg	–	Tmax	17.5 min
CCCCN1C(=O)c2cccc3c(NCCCCCCN4CCOCC4)ccc(c23)C1=O	–	water	pH 6	relative to: fluorescein/0.1 N NaOH	fluorescence quantum yield	0.32
CC(=O)Nc1ncc(CN2CC[C@H](Oc3cccc([18F])n3)C[C@@H]2C)s1	HPLC	formulation	2 h, room temperature	–	radiochemical stability	> 97%
COc1cc(NC(C)=O)c2c(c1O)-c1c(OC)c(OC)cc3c1C(C2)N(C)CC3 (stereo not shown)	–	rat brain homogenate	0.5 µg/mL, 24 h, room temperature, post-preparative storage	–	remaining compound	100 ± 5%
Cc1noc(C)c1Cn1cc(N2C(=O)CN(Cc3cccc(OS(=O)(=O)O)c3)C2=O)cn1	–	rat Sprague-Dawley male, plasma	oral, 10 mg/kg of parent drug	–	AUC(0-last)	18200 ng·h/mL
CCCC[C@H](NC(=O)CNC(=O)CNC(=O)CN1CCN(CC(=O)O)CCN(CC(=O)O)CC1)C(=O)N[C@H]1CC(=O)NCCCC[C@@H](C(N)=O)NC(=O)[C@H](Cc2c[nH]c3ccccc23)NC(=O)[C@H](CCCNC(=N)N)NC(=O)[C@@H](Cc2ccccc2)NC(=O)[C@H](Cc2c[nH]cn2)NC1=O [copper-64 labelled]	–	female C57 mouse, B16/F1 melanoma, heart	intravenous, 0.037 MBq, 4 h	–	tissue uptake	0.41 ± 0.24 %ID/g
C=C(c1cc(F)c(C(=O)O)c(F)c1)c1cc2c(cc1C)C(C)(C)CCC2(C)C	–	Sprague-Dawley rat, male, plasma	oral, 100 mg/kg, 2 h, sesame oil vehicle	–	LDL level	14 ± 6.1 mg/dL
CC(=O)OC[C@H]1O[C@@H](Sc2sc(C(=O)c3ccc(Br)cc3)c(N)c2-c2nc3ccccc3s2)[C@H](OC(C)=O)[C@@H](OC(C)=O)[C@@H]1OC(C)=O	–	DMEM	72 h, coxsackievirus B4 assay host cells	–	maximum nontoxic concentration	100 µg/mL
O=C(NCCCN(CCCCN(CCCNC(=O)c1cccc(=O)n1[O-])C(=O)c1cccc(=O)n1[O-])C(=O)c1cccc(=O)n1[O-])c1cccc(=O)n1[O-].[89Zr+4]	radio-TLC	PBS	1 d, pH 7.4, 37 °C, together with: Co^2+ 10-fold excess	–	intact complex	98.2 ± 2.6%
CC(C)NC(=O)NC1CC=C(c2cc3c(Nc4cc5ncsc5cc4F)ncnc3s2)CC1 (racemic)	–	human liver microsomes	1 µM	–	intrinsic clearance	< 12 mL/min/g protein
C=C(c1ccc(C(=O)O)c(F)c1)c1cc2c(cc1C)C(C)(C)C=CC2(C)C	–	Sprague-Dawley rat, male, plasma	oral, 100 mg/kg, 24 h, sesame oil vehicle	–	LDL level	3 mg/dL
CC[C@H](C)[C@H](NC(=O)[C@H](N)Cc1ccc(O)cc1)C(=O)N[C@H]1CSSC[C@@H](C(=O)N(C)[C@H](C(N)=O)[C@@H](C)CC)NC(=O)[C@H](CCCNC(=N)N)NC(=O)[C@H](Cc2c[nH]cn2)NC(=O)[C@H](C)NC(=O)CN(C)C(=O)[C@H](Cc2c[nH]c3ccccc23)NC(=O)[C@H](CC(=O)O)NC(=O)[C@H](CCC(N)=O)NC(=O)[C@H](Cc2cn(C)c3ccccc23)NC(=O)[C@H](C(C)C)NC1=O	UPLC-ESI-MS	cynomolgus monkey plasma	0.36 µg/mL, 24 h, 25 °C, bench-top after SPE	–	recovery	98.4 ± 0.5%
C[Si](C)(C)C[C@H](CN)CC(=O)O	neuromuscular coordination	Wistar rat male	oral, 100 mg/kg, 2 h	–	performance time	180 s
Cc1ccccc1/N=N/c1ccc(/N=N/c2c(O)ccc3ccccc23)c(C)c1	–	rat whole blood	16.0 µg/L, freeze-thaw cycle 1	–	freeze-thaw stability deviation	0.7%

SMILES	assay	system	setting	how to read	quantity	result
Cc1[nH]nc2c1N=C(c1ccccc1Cl)c1cnc(NCC(=O)O)cc1N2	–	human, feces	oral, 10 mg, 0 to 192 h	relative to: dose	excretion in feces	1.23%
Cc1ccccc1-c1cc(N2CCNCC2)ncc1N(C)C(=O)C(C)(C)c1cc(C(F)(F)F)cc(C(F)(F)F)c1	–	human, plasma	dose not given	–	duration of quantifiable plasma levels	10 days
C=C(c1ncc(C(=O)O)cn1)c1cc2c(cc1C)C(C)(C)CCC2(C)C	–	Sprague-Dawley rat, male, plasma	oral, 100 mg/kg, 1 h, sesame oil vehicle	–	LDL level	36 ± 11.1 mg/dL
CCC(=O)NC1CN(CCCCC2CCN(CC(=O)N3c4ccccc4NC(=O)c4ccccc43)CC2)CCN(CCCOc2nsnc2C2=CCCN(C)C2)C1 (stereo not shown)	–	PBS	100 µM, 48 h, pH 7.4, 22 °C	–	chemical stability	stable
C[Si]1(C[C@H](CN)CC(=O)O)CCCC1	neuromuscular coordination	Wistar rat male	oral, 30 mg/kg, 2 h	–	performance time	180 s
CC1=CC(C)=[O+][Pt-2]([NH3+])([NH3+])[O]1.CC1=CC(C)=[O+][Pt-2]([NH3+])([NH3+])[O]1.O=S(=O)([O-])[O-] (stereo not shown)	1H NMR	water	up to 25 d, 37 °C	–	chemical stability	no effect
C/C=C/CNC(=N)NCCCCCCCCN1CCCc2cc(Cl)ccc2COc2ccccc2CNC(=N)NC1=O	PAMPA	egg phosphatidylcholine in dodecane	500 µM, 5 h, pH 7.4, room temperature	–	membrane retention	52.1%
O=C(O)[C@@H]1C[C@@H](O)CN1C(=O)[C@@H]1CCCN1	potentiometric titration	–	37 °C, MAH-3 complex, together with: Fe(III)	–	log beta	-6.74
O=C([O-])CN1CCN(CC(=O)[O-])CCN(CC(=O)NC[C@H]2CC[C@H](C(=O)N[C@H](Cc3cnc4ccccc4c3)C(=O)NCCCC[C@H](NC(=O)N[C@@H](CCC(=O)O)C(=O)O)C(=O)O)CC2)CCN(CC(=O)[O-])CC1.[64Cu+2]	radio-HPLC	PBS	24 h, 37 °C	–	radiochemical purity	> 95%
COc1cc2ncnc(Oc3ccc4c(C(N)=O)c(C)oc4c3)c2cc1OC	–	human, moderate hepatic impairment, plasma	oral, dose not given, dose-normalized, metabolite	relative to: normal hepatic function	decrease in AUC(0-inf)	1%
NC[C@@H](C(=O)Nc1ccc(-c2cn[nH]c2)cc1)c1ccccc1	OECD 405 eye irritation	New Zealand White rabbit, eye	topical, 0.1%, 80 h (day 4)	direction not given	total eye irritation score	0
COc1cc2c(cc1OC)CN(CCCCn1ccc3cc(OCC[18F])ccc31)C2	–	male CD-1 mouse, muscle	intravenous, 280 kBq, 2 h	–	tracer uptake	1.86 %ID/g
C[C@]12CC[C@@H]3c4ccc(OCC(=O)N[C@@H](CCCCNC(=O)CN5CCN(CC(=O)[O-])CCN(CC(=O)[O-])CCN(CC(=O)[O-])CC5)C(=O)O)cc4CC[C@H]3[C@@H]1CCC2=O.[68Ga+3]	–	female Balb/c mice	2.5 h	–	liver uptake	0.89 ± 0.2 %IA/g
CC(C)C[C@@H](NC(=O)[C@H](NC(=O)[C@H]1CCCN1)[C@H](C)O)C(=O)N[C@H](Cc1c[nH]cn1)C(=O)N[C@@H](C(=O)N[C@H](Cc1c[nH]cn1)C(=O)N[C@H](CC(N)=O)C(=O)N[C@H](CCCNC(=N)N)C(=O)N[C@H](CCCNC(=N)N)C(=O)N[C@H](CCCNC(=N)N)C(=O)N[C@H](CCCNC(=N)N)C(=O)N[C@H](CCCNC(=N)N)C(N)=O)[C@H](C)O	–	beagle dog, plasma	oral, 50 mg/kg, single dose	–	Cmax	2380 ng/mL
Cc1ccc(OCC(=O)N(Cc2cccs2)c2ccn[nH]2)cc1	–	beagle dog, male, plasma	oral gavage, 100 mg/kg	–	oral bioavailability	0.75%
COCCOCCOCCOc1ccc(/C=C/C2=[N+]3C(=C(c4cc(OC)cc(OC)c4)c4c(C)c(I)c(/C=C/c5ccc(OCCOCCOCCOC)cc5)n4[B-]3(F)F)C(C)=C2I)cc1	–	dichloromethane	–	–	absorption maximum	664 nm
CCCC(CCC)NC(=O)c1ccc(O)c(O)c1	–	female Sprague-Dawley rats, plasma	oral, 200 mg/kg of parent drug	relative to: 200 over 20 mg/kg dose	AUC(0-last) ratio	43.7
C#CCN(CCCNC(=O)CCCCC[N+]1=C(/C=C/C2=C(Cl)C(=C/C=C3\N(CCCCCC(=O)[O-])c4ccccc4C3(C)C)/CCC2)C(C)(C)c2ccccc21)CCCOc1ccc(Cl)cc1Cl	–	C57BL mouse, plasma	intravenous, 5 mg/kg	–	terminal half-life	36.6 min
Oc1ccc2ccccc2c1/N=N/c1ccccc1	–	rat whole blood	16.0 µg/L, freeze-thaw cycle 2	–	freeze-thaw stability deviation	0.6%
Cn1c(=O)oc2ccc(-c3ccc(CC(C#N)NC(=O)C4CNCCCO4)c(F)c3)cc21 (stereo not shown)	–	human	oral, 40 mg once daily, TEAE, multiple ascending dose	–	CPK increased incidence	11.1%
CN1CCC[C@]1(C)/C=C/S(=O)(=O)NC(=O)Nc1c2c(cc3c1CCC3)CCC2	–	human, plasma	oral, 50 mg, single dose	–	Tmax	60 min
N#Cc1ccc(-c2cc(=O)c3ccc4[nH]c(C(F)(F)F)nc4c3o2)cc1	–	ICR mice, plasma	intravenous, 2 mg/kg	–	Tmax	≤ 5 min
CC/C=C\C/C=C\C/C=C\C/C=C\C/C=C\CCCCOC(CC)C(=O)O (stereo not shown)	[14C] label	male Wistar rat, kidney medulla	oral, 100 mg/kg, 2 h	–	radioactivity concentration	148 µg equiv/g

For quick reference, copied from above:
SMILES	assay	system	setting	how to read	quantity	result
O=C(O)[C@@H]1C[C@@H](O)CN1C(=O)[C@@H]1CCCN1	potentiometric titration	–	37 °C, MAH-3 complex, together with: Fe(III)	–	log beta	-6.74
O=C([O-])CN1CCN(CC(=O)[O-])CCN(CC(=O)NC[C@H]2CC[C@H](C(=O)N[C@H](Cc3cnc4ccccc4c3)C(=O)NCCCC[C@H](NC(=O)N[C@@H](CCC(=O)O)C(=O)O)C(=O)O)CC2)CCN(CC(=O)[O-])CC1.[64Cu+2]	radio-HPLC	PBS	24 h, 37 °C	–	radiochemical purity	> 95%
COc1cc2ncnc(Oc3ccc4c(C(N)=O)c(C)oc4c3)c2cc1OC	–	human, moderate hepatic impairment, plasma	oral, dose not given, dose-normalized, metabolite	relative to: normal hepatic function	decrease in AUC(0-inf)	1%
NC[C@@H](C(=O)Nc1ccc(-c2cn[nH]c2)cc1)c1ccccc1	OECD 405 eye irritation	New Zealand White rabbit, eye	topical, 0.1%, 80 h (day 4)	direction not given	total eye irritation score	0
COc1cc2c(cc1OC)CN(CCCCn1ccc3cc(OCC[18F])ccc31)C2	–	male CD-1 mouse, muscle	intravenous, 280 kBq, 2 h	–	tracer uptake	1.86 %ID/g
